Measurements of several laboratories.
Compare with care: the assays were run in different laboratories. ± gives the spread as reported.
CYBB: NADPH oxidase 2 (CYBB, Homo sapiens, UniProt P04839)
NOX5: NADPH oxidase 5 (NOX5, Homo sapiens, UniProt Q96PH1)
Neuronal acetylcholine receptor; alpha3/beta2: Neuronal acetylcholine receptor; alpha3/beta2 (Rattus norvegicus, UniProt P04757+P12390)
NOX1: NADPH oxidase 1 (NOX1, Homo sapiens, UniProt Q9Y5S8)
Salicylate synthetase, Irp9: Salicylate synthetase, Irp9 (Yersinia enterocolitica, UniProt Q9X9I8)
Chrna3/Chrnb2/Chrna6 with beta3 subunit: Chrna3/Chrnb2/Chrna6, with beta3 subunit (Rattus norvegicus, UniProt P04757+P12390+P43143)
ache: Acetylcholinesterase (ache, Electrophorus electricus, UniProt O42275)

By UniProt entry, the sequences of proteins in these tests, tags left out. Residues count along the entry.
UniProt Q96PH1, 1-719 isoform 4: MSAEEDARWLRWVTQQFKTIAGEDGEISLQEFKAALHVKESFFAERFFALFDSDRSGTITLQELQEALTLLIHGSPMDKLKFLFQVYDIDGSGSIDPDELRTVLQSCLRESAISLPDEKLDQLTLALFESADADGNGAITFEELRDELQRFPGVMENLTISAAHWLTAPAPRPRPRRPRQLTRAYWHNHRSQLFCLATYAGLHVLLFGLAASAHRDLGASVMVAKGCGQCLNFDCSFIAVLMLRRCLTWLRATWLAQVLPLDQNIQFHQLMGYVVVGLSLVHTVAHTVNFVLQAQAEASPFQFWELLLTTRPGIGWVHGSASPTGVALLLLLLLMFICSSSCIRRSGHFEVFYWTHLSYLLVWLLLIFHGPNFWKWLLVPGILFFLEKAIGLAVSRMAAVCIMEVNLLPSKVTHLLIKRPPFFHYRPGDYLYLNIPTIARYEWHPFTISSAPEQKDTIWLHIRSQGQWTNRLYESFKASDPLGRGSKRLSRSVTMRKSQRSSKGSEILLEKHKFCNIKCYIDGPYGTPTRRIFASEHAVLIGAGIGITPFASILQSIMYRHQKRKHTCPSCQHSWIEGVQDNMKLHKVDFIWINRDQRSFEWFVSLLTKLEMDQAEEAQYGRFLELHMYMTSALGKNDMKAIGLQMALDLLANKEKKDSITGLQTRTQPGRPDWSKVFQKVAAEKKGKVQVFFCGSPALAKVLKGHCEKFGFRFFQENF
UniProt P04757, 26-499 limits assumed: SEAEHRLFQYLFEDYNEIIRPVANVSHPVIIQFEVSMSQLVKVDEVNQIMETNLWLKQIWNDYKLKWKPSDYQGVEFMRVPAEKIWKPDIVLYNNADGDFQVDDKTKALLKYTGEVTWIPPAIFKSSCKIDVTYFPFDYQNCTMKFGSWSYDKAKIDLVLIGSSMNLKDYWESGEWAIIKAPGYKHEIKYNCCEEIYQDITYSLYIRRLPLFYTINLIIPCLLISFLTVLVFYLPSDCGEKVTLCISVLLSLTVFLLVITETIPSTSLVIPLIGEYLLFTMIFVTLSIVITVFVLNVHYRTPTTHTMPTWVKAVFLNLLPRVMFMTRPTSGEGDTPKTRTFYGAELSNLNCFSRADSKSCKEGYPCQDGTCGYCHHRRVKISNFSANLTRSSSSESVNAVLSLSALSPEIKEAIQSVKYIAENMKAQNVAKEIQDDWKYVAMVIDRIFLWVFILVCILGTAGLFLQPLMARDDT
UniProt P04757, whole entry, looked up: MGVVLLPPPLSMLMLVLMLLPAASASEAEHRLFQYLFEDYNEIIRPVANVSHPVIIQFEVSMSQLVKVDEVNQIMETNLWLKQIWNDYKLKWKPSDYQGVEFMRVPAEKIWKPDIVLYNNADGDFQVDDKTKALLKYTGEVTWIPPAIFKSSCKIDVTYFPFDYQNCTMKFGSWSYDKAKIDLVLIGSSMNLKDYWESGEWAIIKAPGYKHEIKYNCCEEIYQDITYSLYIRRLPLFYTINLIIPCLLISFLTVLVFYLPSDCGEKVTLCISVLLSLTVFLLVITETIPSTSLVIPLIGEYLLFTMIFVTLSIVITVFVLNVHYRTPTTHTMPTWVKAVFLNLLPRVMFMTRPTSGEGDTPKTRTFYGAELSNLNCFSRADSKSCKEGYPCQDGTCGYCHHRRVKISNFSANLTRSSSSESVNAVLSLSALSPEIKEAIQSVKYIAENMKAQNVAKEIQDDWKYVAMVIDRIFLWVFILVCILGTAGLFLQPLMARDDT
UniProt P12390, 25-500 limits assumed: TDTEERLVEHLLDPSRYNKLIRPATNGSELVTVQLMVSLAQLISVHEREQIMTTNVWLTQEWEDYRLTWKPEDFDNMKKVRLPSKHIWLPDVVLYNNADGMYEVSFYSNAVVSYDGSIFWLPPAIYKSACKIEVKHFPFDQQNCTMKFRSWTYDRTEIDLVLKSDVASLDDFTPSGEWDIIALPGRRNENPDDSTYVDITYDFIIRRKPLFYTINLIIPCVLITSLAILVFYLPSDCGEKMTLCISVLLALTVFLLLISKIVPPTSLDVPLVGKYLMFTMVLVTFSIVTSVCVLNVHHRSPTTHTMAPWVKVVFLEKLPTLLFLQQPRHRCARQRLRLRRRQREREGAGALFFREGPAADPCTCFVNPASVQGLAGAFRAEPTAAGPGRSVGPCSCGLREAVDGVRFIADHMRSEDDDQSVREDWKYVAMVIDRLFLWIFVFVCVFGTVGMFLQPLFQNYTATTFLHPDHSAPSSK
UniProt P12390, whole entry, looked up: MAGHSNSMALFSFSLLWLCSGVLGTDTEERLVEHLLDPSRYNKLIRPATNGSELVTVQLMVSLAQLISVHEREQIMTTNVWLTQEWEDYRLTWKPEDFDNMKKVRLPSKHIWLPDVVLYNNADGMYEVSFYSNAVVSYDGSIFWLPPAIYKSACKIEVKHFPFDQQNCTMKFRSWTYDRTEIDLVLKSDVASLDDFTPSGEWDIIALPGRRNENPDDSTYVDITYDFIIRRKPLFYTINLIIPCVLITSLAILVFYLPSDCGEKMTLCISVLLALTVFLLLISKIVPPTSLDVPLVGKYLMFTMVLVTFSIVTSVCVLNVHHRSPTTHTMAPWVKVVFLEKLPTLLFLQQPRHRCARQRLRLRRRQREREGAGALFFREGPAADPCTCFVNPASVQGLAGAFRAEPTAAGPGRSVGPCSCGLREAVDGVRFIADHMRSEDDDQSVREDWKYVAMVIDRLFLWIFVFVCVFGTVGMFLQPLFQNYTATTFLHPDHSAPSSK
UniProt Q9Y5S8, whole entry: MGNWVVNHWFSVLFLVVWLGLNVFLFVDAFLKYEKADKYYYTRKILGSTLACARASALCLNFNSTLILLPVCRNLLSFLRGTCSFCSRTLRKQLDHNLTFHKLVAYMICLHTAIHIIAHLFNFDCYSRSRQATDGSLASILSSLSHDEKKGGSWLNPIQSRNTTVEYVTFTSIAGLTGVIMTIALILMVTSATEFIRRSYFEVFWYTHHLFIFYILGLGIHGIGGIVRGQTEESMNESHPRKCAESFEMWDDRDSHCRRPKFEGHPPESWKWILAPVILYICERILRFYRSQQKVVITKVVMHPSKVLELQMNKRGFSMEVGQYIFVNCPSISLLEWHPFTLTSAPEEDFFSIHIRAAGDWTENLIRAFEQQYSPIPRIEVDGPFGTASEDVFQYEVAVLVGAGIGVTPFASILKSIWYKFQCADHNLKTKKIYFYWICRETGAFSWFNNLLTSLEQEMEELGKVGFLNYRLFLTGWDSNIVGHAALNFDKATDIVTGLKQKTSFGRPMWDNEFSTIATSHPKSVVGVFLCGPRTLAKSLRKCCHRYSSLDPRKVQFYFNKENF
UniProt Q9X9I8, 1-434: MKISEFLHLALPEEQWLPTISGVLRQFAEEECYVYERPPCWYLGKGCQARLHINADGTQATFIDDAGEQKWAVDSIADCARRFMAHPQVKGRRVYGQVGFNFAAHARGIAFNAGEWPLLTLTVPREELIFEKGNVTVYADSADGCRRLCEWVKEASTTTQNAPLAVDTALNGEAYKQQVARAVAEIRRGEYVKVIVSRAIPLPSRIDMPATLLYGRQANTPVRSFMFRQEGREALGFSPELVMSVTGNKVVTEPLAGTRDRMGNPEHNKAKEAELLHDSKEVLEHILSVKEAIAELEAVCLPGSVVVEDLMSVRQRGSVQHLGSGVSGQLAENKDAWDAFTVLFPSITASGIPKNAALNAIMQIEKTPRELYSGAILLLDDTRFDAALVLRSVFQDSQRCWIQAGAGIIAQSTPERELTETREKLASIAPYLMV
UniProt P43143, whole entry M241L/F253L/V303I/V320I/I327V/A333T/K339T, looked up: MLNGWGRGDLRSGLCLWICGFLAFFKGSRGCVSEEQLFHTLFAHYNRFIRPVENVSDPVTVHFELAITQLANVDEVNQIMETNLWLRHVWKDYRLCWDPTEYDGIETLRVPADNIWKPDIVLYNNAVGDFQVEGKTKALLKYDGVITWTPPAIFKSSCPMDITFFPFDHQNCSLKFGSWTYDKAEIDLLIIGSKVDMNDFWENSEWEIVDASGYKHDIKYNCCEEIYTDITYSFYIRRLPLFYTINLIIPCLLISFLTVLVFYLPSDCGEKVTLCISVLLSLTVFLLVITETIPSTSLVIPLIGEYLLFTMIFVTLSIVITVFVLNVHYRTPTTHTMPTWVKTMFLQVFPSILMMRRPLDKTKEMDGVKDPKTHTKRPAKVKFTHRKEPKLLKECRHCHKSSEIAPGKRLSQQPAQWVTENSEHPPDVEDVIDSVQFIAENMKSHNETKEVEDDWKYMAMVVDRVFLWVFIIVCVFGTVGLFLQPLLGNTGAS
UniProt O42275, 24-633 limits assumed: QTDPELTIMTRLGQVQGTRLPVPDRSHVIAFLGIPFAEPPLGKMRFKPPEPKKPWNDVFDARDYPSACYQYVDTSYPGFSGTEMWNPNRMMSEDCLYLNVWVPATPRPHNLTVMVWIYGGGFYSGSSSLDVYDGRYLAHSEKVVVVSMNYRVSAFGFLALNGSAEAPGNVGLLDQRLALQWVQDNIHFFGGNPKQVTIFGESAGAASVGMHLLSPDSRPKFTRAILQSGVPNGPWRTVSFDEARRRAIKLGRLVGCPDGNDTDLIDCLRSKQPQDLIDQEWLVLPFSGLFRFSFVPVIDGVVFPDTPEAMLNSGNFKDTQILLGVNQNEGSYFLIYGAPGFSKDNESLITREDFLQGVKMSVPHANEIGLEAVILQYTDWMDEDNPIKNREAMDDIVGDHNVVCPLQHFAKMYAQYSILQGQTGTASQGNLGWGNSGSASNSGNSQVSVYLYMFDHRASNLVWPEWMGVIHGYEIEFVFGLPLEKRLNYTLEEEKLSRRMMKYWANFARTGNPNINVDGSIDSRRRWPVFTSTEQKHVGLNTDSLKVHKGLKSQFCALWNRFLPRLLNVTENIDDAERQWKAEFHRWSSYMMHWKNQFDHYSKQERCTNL
UniProt P63252, whole entry: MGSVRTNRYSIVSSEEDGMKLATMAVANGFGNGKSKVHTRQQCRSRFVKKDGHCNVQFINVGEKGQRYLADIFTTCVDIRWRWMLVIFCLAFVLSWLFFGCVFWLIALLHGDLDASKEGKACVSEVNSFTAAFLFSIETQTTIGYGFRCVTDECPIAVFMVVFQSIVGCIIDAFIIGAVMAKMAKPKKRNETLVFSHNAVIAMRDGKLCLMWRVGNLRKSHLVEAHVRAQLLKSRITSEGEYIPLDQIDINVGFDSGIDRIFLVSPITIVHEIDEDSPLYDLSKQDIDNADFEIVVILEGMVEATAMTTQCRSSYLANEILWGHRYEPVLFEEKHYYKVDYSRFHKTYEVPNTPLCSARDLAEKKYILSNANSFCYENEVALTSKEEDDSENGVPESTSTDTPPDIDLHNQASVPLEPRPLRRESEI
UniProt Q16566, whole entry: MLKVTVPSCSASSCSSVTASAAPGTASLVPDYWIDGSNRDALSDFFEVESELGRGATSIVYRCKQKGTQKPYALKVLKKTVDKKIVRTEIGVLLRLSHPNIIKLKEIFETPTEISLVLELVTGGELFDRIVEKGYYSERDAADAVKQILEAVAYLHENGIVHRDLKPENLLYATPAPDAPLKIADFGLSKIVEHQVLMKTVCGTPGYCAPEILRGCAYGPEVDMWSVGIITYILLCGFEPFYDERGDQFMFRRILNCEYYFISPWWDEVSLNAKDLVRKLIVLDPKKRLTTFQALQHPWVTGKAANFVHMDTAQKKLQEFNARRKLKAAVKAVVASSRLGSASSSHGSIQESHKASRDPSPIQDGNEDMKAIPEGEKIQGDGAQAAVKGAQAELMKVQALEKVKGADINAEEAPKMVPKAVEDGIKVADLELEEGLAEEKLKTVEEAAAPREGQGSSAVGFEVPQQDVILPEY
UniProt C0LT34, 1-466: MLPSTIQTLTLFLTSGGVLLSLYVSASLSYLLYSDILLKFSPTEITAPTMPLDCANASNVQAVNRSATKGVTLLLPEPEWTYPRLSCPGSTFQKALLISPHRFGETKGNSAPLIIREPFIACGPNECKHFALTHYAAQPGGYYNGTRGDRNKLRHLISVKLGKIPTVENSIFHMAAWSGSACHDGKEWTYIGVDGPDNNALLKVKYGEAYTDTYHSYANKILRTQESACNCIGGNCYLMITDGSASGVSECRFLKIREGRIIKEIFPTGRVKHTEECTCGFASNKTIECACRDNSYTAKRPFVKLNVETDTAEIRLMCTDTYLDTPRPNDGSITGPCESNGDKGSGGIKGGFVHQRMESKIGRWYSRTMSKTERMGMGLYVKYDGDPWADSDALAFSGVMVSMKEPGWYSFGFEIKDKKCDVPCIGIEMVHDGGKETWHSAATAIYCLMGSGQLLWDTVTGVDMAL
UniProt P47869, whole entry, looked up: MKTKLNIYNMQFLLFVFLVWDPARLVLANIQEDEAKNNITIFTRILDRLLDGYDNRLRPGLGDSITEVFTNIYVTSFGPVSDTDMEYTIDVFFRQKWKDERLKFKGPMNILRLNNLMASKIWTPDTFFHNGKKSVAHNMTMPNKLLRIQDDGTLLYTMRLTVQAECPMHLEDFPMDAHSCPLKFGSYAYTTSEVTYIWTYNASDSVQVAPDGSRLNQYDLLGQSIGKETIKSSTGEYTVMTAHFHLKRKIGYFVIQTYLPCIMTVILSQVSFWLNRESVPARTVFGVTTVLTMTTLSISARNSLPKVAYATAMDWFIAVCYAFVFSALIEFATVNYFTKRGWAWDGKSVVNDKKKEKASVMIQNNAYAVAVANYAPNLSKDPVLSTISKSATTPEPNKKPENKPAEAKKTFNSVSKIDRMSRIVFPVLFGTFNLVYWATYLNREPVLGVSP

FC(F)(F)c1ccc2nc(Sc3ncnc4c3nnn4Cc3ccccc3)oc2c1
IC50 (CYBB; enzyme activity, inhibitor, MCLA chemiluminescence; cell-free membranes): > 100 µM

C[C@@H](Oc1cc[n+]([O-])c2ccccc12)c1cn(-c2ccc(Cl)cc2)nn1
IC50 (guaB (Vibrio cholerae, UniProt Q9KTW3); enzyme activity, inhibitor; added: 1 mM IMP): > 5 µM

Cc1cccc2nc(Sc3ncnc4c3nnn4Cc3ccccc3)oc12
IC50 (NOX5; enzyme activity, inhibitor, Amplex Red; cell-free membranes): 2.3 ± 0.1 µM

CC(C)C[C@@H]1NC(=O)[C@H](CCC(=O)O)NC(=O)[C@@H]2CCCN2C(=O)[C@H](Cc2c[nH]cn2)NC(=O)[C@H](CC(N)=O)NC(=O)[C@H]([C@@H](C)O)NC(=O)[C@H](CO)NC(=O)[C@@H]2CSSC[C@H](NC(=O)CN)C(=O)N[C@@H](CSSC[C@@H](C(N)=O)NC1=O)C(=O)N[C@@H](CO)C(=O)N[C@@H](Cc1c[nH]cn1)C(=O)N1CCC[C@H]1C(=O)N[C@@H](C)C(=O)N2
IC50 (Neuronal acetylcholine receptor; alpha3/beta2; ion current, antagonist, two-electrode voltage clamp; Xenopus laevis oocytes; added: 100 µM acetylcholine): 0.0245 µM

Clc1ccc2nc(Sc3ncnc4c3nnn4Cc3ccccc3)oc2c1
IC50 (NOX1; enzyme activity, inhibitor, Amplex Red; cell-free membranes): > 100 µM

O=c1oc2cc(Br)c(O)c(Br)c2s1
IC50 (Salicylate synthetase, Irp9; salicylate production, inhibitor; pH 7.5, 25 °C, added: chorismate 2 µM): 60 ± 20 µM

CC(C)C[C@@H]1NC(=O)[C@H](CCC(=O)O)NC(=O)[C@@H]2CCCN2C(=O)[C@H](Cc2c[nH]cn2)NC(=O)[C@H](CC(=O)O)NC(=O)[C@H](CC(C)C)NC(=O)[C@H](Cc2c[nH]cn2)NC(=O)[C@@H]2CSSC[C@H](NC(=O)CN)C(=O)N[C@@H](CSSC[C@@H](C(N)=O)NC1=O)C(=O)N[C@@H](CO)C(=O)N[C@@H](Cc1c[nH]cn1)C(=O)N1CCC[C@H]1C(=O)N[C@@H](C)C(=O)N2
IC50 (Chrna3/Chrnb2/Chrna6 with beta3 subunit; ion current, antagonist, two-electrode voltage clamp; Xenopus laevis oocytes; added: 100 µM acetylcholine): 0.0199 µM

Fc1ccc2nc(Sc3ncnc4c3nnn4Cc3ccccc3)oc2c1
IC50 (NOX1; enzyme activity, inhibitor, Amplex Red; cell-free membranes): > 100 µM

CCCN1CCN(c2ccc3c(c2)C2CC3CCN2C(=O)OCc2ccccc2)CC1 (centres unmarked)
Ki (Alpha-1D adrenergic receptor (ADRA1D, Homo sapiens, UniProt P25100); binding, radioligand binding): 1.91 µM

c1ccc(Cn2nnc3c(Sc4nc5ccccc5[nH]4)ncnc32)cc1
IC50 (CYBB; enzyme activity, inhibitor, MCLA chemiluminescence; cell-free membranes): > 100 µM

CC(C)C[C@@H]1NC(=O)[C@H](CCC(=O)O)NC(=O)[C@@H]2CCCN2C(=O)[C@H](Cc2c[nH]cn2)NC(=O)[C@H](CCCCC(=O)O)NC(=O)[C@H](CC(C)C)NC(=O)[C@H](Cc2c[nH]cn2)NC(=O)[C@@H]2CSSC[C@H](NC(=O)CN)C(=O)N[C@@H](CSSC[C@@H](C(N)=O)NC1=O)C(=O)N[C@@H](CO)C(=O)N[C@@H](Cc1c[nH]cn1)C(=O)N1CCC[C@H]1C(=O)N[C@@H](C)C(=O)N2
IC50 (Nicotinic acetylcholine receptor alpha6/alpha3/beta4 (Rattus norvegicus, UniProt P04757+P12392+P43143); ACh-evoked current, antagonist, two-electrode voltage clamp; Xenopus laevis oocytes; added: ACh 300 µM): 0.0431 µM

CN(CCCl)Cc1cc(Cl)c(NC2=NCCN2)c(Cl)c1
IC50 (Inward rectifier potassium channel 2 (KCNJ2, Homo sapiens, UniProt P63252); inward current, inhibitor, automated patch clamp; 3 min per concentration, room temperature, cumulative, at -120 mV): 25 µM

CC(C)Cc1ccc(C(C)C(=O)OCc2ccc(OC(=O)OCC[Si](C)(C)C)cc2)cc1 (centres unmarked)
IC50 (ache; enzyme activity, inhibitor, Ellman): 1.19 ± 0.2 µM

C[C@H]1[C@H](F)C[C@@H](C(=O)NCc2cc(-c3cnc(C(F)(F)F)nc3)ncc2C(F)(F)F)N1S(=O)(=O)c1ccc(F)cc1
IC50 (Transient receptor potential cation channel subfamily A member 1 (TRPA1, Homo sapiens, UniProt O75762); calcium influx, antagonist, FlexStation calcium; HEK-293T transfected; added: CS gas at EC50): 0.095 µM

CC#C/C(=N\OC[C@H]1COCCN1)c1ccc2ncnc(Nc3ccc(OCc4cccc(F)c4)c(Cl)c3)c2c1
inhibition (Calcium/calmodulin-dependent protein kinase type IV (CAMK4, Homo sapiens, UniProt Q16566); kinase activity; 10 µM): 1.8%

COc1ccc2c(c1)c(CC(=O)OCc1ccc(OC(=O)OCC[Si](C)(C)C)cc1)c(C)n2C(=O)c1ccc(Cl)cc1
IC50 (ache; enzyme activity, inhibitor, Ellman): 0.72 ± 0.13 µM

COc1ccc2nc(Sc3ncnc4c3nnn4Cc3ccccc3)oc2c1
IC50 (NOX5; enzyme activity, inhibitor, Amplex Red; cell-free membranes): 1.6 ± 0.2 µM

CC(C)C[C@@H]1NC(=O)[C@H](CCC(=O)O)NC(=O)[C@@H]2CCCN2C(=O)[C@H](Cc2c[nH]cn2)NC(=O)[C@H](CC(N)=O)NC(=O)[C@H](CC(C)C)NC(=O)[C@H](CO)NC(=O)[C@@H]2CSSC[C@H](NC(=O)CN)C(=O)N[C@@H](CSSC[C@@H](C(N)=O)NC1=O)C(=O)N[C@@H](CO)C(=O)N[C@@H](Cc1c[nH]cn1)C(=O)N1CCC[C@H]1C(=O)N[C@@H](C)C(=O)N2
IC50 (Neuronal acetylcholine receptor; alpha3/beta2; ion current, antagonist, two-electrode voltage clamp; Xenopus laevis oocytes; added: 100 µM acetylcholine): 0.0106 µM

O=C(O)c1ccccc1[As](=O)(O)O
IC50 (Sphingomyelin phosphodiesterase (SMPD1, Homo sapiens, UniProt P17405); enzyme activity, inhibitor; pH 5.0, added: HMU-PC substrate): 0.27 µM

CCC(C)C1NC(=O)/C(=C(/C)O)C1=O (centres unmarked)
IC50 (AHA2 (Arabidopsis thaliana, UniProt P19456); ATP hydrolysis, inhibitor; ER-enriched fraction; expressed in Saccharomyces cerevisiae): 14.3 µM

C[As](SC[C@H](NC(=O)CC[C@H](N)C(=O)O)C(=O)NCC(=O)O)SC[C@H](NC(=O)CC[C@H](N)C(=O)O)C(=O)NCC(=O)O
IC50 (Progesterone receptor (PGR, Homo sapiens, UniProt P06401); DNA binding, fluorescence polarization; added: FITC-labelled GRE DNA): 0.5 µM

CC(C)[C@@H]1NC(=O)[C@H](CO)NC(=O)[C@@H]2CSSC[C@H](NC(=O)CN)C(=O)N[C@@H](CSSC[C@@H](C(N)=O)NC(=O)[C@H](C)NC(=O)[C@H](CCC(=O)O)NC(=O)[C@@H]3CCCN3C(=O)[C@H](Cc3c[nH]cn3)NC(=O)[C@H](CC(N)=O)NC1=O)C(=O)N[C@@H](CO)C(=O)N[C@@H](Cc1c[nH]cn1)C(=O)N1CCC[C@H]1C(=O)N[C@@H](C)C(=O)N2
IC50 (Neuronal acetylcholine receptor; alpha3/beta2; ion current, antagonist, two-electrode voltage clamp; Xenopus laevis oocytes; added: 100 µM acetylcholine): 0.733 µM

Cc1cccc2oc(Sc3ncnc4c3nnn4Cc3ccccc3)nc12
IC50 (NOX1; enzyme activity, inhibitor, Amplex Red; cell-free membranes): > 100 µM

CCC(CC)O[C@@H]1C=C(C(=O)O)C[C@H](N=C(N)N)[C@H]1NC(=O)CF
IC50 (Neuraminidase (Influenza B virus, UniProt C0LT34); neuraminidase activity, inhibitor): 0.0031 µM

CC(C)C[C@@H]1NC(=O)[C@H](CCC(=O)O)NC(=O)[C@@H]2CCCN2C(=O)[C@H](Cc2c[nH]cn2)NC(=O)[C@H](CC(N)=O)NC(=O)[C@H](CC(C)C)NC(=O)[C@H](Cc2c[nH]cn2)NC(=O)[C@@H]2CSSC[C@H](NC(=O)CN)C(=O)N[C@@H](CSSC[C@@H](C(N)=O)NC1=O)C(=O)N[C@@H](CO)C(=O)N[C@@H](Cc1c[nH]cn1)C(=O)N1CCC[C@H]1C(=O)N[C@@H](C)C(=O)N2
IC50 (Chrna3/Chrnb2/Chrna6 with beta3 subunit; ion current, antagonist, two-electrode voltage clamp; Xenopus laevis oocytes; added: 100 µM acetylcholine): 0.00104 µM

Cc1c(CC(=O)O)c2ccccc2n1C1CCN(Cc2ccccc2)CC1
IC50 (Delta-type opioid receptor (Oprd1, Mus musculus, UniProt P32300); agonist; mouse vas deferens): 1.27 ± 0.355 µM

CC[C@H](C)[C@@H]1NC(=O)[C@H](CCC(=O)O)NC(=O)[C@@H]2CCCN2C(=O)[C@H](Cc2c[nH]cn2)NC(=O)[C@H](CC(N)=O)NC(=O)[C@H](CC(C)C)NC(=O)[C@H](Cc2c[nH]cn2)NC(=O)[C@@H]2CSSC[C@H](NC(=O)CN)C(=O)N[C@@H](CSSC[C@@H](C(N)=O)NC1=O)C(=O)N[C@@H](CO)C(=O)N[C@@H](Cc1c[nH]cn1)C(=O)N1CCC[C@H]1C(=O)N[C@@H](C)C(=O)N2
IC50 (Neuronal acetylcholine receptor; alpha3/beta2; ion current, antagonist, two-electrode voltage clamp; Xenopus laevis oocytes; added: 100 µM acetylcholine): 0.00028 µM

C=C(C)[C@@H]1[C@H]2OC(=O)[C@@H]1[C@]1(O)C[C@H]3O[C@]34C(=O)O[C@H]2[C@]14C
IC50 (GABRG2/GABRA2/Gabrb2 (Homo sapiens, UniProt P18507+P47869+P63138); chloride current, inhibitor, whole-cell voltage clamp; L929; 3 min preincubation, added: GABA at EC90): 11 µM

O=C1S/C(=C/c2cc([N+](=O)[O-])cc([N+](=O)[O-])c2O)C(=O)N1c1ccccc1
IC50 (Salicylate synthetase, Irp9; pyruvate production, inhibitor; 25 °C, added: chorismate 10 µM): > 160 µM

COc1ccc2c(c1)c(CC(=O)OCc1ccc(OC(=O)OCCC(C)(C)C)cc1)c(C)n2C(=O)c1ccc(Cl)cc1
IC50 (ache; enzyme activity, inhibitor, Ellman): 2.29 ± 0.94 µM

O=[N+]([O-])c1cc(S(=O)(=O)c2cc([N+](=O)[O-])c(O)c([N+](=O)[O-])c2)cc([N+](=O)[O-])c1O
IC50 (Salicylate synthetase, Irp9; salicylate production, inhibitor; pH 7.5, 25 °C, added: chorismate 2 µM): 80 ± 20 µM

CC(Cc1ccc(O)cc1)NCC(O)c1cc(O)cc(O)c1 (centres unmarked)
IC50 (Synaptic vesicular amine transporter (SLC18A2, Homo sapiens, UniProt Q05940); monoamine uptake, inhibitor): 0.333 µM

CCN1CCN(Cc2ccc(NC(=O)c3ccc(C)c(/C=C/c4cnc5[nH]ccc5c4OC)c3)cc2C(F)(F)F)CC1
log2 fold change (human EGFR vIII; kinase-CDC37 interaction, inhibitor; human cells; 5 µM; baseline: vehicle): 0.309

COC(=O)Oc1c([N+](=O)[O-])cc2oc(=O)sc2c1[N+](=O)[O-]
IC50 (Salicylate synthetase, Irp9; salicylate production, inhibitor; pH 7.5, 25 °C, added: chorismate 2 µM): 25 ± 3 µM

Brc1ccc2nc(Sc3ncnc4c3nnn4Cc3ccccc3)oc2c1
IC50 (NADPH oxidase 4 (NOX4, Homo sapiens, UniProt Q9NPH5); enzyme activity, inhibitor, Amplex Red; cell-free membranes): > 100 µM

Excerpt of the above:
COc1ccc2c(c1)c(CC(=O)OCc1ccc(OC(=O)OCCC(C)(C)C)cc1)c(C)n2C(=O)c1ccc(Cl)cc1
IC50 (ache; enzyme activity, inhibitor, Ellman): 2.29 ± 0.94 µM

O=[N+]([O-])c1cc(S(=O)(=O)c2cc([N+](=O)[O-])c(O)c([N+](=O)[O-])c2)cc([N+](=O)[O-])c1O
IC50 (Salicylate synthetase, Irp9; salicylate production, inhibitor; pH 7.5, 25 °C, added: chorismate 2 µM): 80 ± 20 µM

CC(Cc1ccc(O)cc1)NCC(O)c1cc(O)cc(O)c1 (centres unmarked)
IC50 (Synaptic vesicular amine transporter (SLC18A2, Homo sapiens, UniProt Q05940); monoamine uptake, inhibitor): 0.333 µM

CCN1CCN(Cc2ccc(NC(=O)c3ccc(C)c(/C=C/c4cnc5[nH]ccc5c4OC)c3)cc2C(F)(F)F)CC1
log2 fold change (human EGFR vIII; kinase-CDC37 interaction, inhibitor; human cells; 5 µM; baseline: vehicle): 0.309

COC(=O)Oc1c([N+](=O)[O-])cc2oc(=O)sc2c1[N+](=O)[O-]
IC50 (Salicylate synthetase, Irp9; salicylate production, inhibitor; pH 7.5, 25 °C, added: chorismate 2 µM): 25 ± 3 µM

Brc1ccc2nc(Sc3ncnc4c3nnn4Cc3ccccc3)oc2c1
IC50 (NADPH oxidase 4 (NOX4, Homo sapiens, UniProt Q9NPH5); enzyme activity, inhibitor, Amplex Red; cell-free membranes): > 100 µM
